Published values from different studies.
A part holds a random share of what one study measured. “And” joins repeats or separate records; there may be more than shown.
Chain of UniProt Q9Y4K4 (whole entry, looked up): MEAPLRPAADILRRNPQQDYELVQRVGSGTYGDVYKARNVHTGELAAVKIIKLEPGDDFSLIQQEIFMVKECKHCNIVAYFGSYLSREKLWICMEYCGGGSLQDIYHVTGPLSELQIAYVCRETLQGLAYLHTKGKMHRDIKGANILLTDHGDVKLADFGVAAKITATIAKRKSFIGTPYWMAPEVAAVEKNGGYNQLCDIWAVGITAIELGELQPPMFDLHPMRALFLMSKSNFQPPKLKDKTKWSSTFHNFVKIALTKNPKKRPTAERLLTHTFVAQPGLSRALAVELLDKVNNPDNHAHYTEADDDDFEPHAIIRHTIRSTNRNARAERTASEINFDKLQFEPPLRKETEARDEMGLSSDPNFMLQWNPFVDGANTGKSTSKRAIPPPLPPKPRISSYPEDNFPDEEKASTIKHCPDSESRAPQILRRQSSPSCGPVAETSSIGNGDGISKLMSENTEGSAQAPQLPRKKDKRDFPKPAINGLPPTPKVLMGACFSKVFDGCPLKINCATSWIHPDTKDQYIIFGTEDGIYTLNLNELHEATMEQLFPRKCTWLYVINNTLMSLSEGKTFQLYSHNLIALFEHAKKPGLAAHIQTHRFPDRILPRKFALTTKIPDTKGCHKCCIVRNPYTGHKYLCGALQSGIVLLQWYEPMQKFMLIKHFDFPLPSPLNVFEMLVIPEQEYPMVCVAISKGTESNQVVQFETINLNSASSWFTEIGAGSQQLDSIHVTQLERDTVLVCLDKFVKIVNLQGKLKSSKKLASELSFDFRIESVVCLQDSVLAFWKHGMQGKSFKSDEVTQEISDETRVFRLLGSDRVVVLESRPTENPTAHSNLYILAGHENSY
Chain of UniProt O00329 (whole entry, looked up): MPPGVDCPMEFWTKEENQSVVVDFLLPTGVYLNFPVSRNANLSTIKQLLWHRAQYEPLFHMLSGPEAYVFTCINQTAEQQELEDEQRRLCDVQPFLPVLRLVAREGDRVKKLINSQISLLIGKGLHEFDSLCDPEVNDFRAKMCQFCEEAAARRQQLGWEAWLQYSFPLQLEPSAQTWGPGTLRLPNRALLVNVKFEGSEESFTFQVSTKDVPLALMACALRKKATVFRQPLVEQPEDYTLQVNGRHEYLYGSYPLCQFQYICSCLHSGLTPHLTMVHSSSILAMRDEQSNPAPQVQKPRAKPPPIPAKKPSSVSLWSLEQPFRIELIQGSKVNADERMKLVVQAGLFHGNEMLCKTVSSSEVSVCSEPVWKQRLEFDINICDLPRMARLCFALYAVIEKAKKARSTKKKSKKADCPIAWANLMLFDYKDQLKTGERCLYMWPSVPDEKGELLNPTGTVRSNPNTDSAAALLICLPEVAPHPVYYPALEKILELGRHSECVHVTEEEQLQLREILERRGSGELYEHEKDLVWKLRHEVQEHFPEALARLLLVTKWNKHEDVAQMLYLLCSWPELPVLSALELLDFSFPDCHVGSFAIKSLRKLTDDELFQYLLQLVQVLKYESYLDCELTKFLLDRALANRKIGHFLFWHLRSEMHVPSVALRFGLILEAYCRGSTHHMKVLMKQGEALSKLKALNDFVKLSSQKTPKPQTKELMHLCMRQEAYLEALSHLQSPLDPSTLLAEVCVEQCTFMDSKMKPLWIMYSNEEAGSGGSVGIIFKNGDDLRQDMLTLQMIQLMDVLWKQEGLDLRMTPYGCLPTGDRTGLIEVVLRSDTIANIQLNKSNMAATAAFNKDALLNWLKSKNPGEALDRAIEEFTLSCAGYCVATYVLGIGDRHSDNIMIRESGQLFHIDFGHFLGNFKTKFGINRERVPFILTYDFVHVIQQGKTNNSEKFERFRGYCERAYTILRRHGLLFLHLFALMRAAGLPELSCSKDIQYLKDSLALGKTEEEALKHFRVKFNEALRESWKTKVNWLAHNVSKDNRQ
Chain of UniProt Q9UBE8 (whole entry, looked up): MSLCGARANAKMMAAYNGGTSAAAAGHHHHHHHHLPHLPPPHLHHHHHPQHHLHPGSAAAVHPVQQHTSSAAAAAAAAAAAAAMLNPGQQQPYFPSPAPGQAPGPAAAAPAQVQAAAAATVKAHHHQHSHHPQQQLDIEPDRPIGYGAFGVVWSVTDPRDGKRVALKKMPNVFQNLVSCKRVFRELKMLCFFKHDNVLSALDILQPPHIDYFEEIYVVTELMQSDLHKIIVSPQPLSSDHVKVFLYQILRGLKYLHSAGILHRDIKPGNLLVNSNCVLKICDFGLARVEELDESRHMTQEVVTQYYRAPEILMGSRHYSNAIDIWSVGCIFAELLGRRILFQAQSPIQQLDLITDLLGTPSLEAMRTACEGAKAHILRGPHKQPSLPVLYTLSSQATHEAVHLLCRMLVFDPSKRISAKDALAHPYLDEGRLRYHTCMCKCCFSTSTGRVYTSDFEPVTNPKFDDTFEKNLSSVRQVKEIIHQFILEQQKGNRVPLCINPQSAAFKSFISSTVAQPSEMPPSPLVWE
Chain of UniProt Q08345 (whole entry, looked up): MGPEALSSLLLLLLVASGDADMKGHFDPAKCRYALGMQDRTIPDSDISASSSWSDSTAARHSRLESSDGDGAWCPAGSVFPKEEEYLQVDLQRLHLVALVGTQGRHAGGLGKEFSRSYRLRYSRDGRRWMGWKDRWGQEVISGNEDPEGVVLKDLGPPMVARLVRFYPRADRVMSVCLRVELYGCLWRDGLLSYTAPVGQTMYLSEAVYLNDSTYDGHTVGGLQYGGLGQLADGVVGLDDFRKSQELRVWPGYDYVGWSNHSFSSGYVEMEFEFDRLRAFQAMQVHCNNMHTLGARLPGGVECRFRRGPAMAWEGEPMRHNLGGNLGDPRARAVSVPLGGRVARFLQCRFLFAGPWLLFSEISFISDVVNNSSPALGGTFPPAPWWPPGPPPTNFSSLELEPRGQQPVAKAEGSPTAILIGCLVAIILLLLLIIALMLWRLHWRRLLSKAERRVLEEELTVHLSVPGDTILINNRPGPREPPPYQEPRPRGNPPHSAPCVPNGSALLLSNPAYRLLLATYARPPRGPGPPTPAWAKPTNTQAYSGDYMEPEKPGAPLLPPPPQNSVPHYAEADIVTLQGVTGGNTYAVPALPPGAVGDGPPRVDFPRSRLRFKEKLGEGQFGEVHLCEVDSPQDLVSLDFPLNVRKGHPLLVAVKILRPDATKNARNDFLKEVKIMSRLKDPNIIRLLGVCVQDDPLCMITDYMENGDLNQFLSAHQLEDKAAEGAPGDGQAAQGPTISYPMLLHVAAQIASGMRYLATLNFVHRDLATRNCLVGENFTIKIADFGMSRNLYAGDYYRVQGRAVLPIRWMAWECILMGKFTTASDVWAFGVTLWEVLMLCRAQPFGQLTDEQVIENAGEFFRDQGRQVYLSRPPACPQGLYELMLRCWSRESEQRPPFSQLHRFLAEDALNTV
Chain of UniProt Q13976 (whole entry, looked up): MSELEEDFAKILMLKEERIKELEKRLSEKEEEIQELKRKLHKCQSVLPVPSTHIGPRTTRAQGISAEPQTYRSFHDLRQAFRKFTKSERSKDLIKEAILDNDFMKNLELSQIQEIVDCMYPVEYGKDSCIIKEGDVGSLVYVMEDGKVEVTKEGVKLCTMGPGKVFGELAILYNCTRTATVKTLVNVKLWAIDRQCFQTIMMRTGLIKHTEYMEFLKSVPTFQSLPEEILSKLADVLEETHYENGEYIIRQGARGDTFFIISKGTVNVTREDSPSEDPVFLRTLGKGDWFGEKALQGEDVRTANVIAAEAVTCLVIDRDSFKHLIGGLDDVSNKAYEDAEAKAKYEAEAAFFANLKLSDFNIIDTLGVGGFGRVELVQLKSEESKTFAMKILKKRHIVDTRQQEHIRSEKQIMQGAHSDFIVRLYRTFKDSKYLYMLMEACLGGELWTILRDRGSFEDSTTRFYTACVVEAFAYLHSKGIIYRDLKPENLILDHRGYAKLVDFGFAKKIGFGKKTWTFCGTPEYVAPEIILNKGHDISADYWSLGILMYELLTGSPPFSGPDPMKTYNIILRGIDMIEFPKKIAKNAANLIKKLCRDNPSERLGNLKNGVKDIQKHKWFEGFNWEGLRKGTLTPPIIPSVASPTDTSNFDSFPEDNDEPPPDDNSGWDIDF
Chain of UniProt Q9UQM7 (whole entry, looked up): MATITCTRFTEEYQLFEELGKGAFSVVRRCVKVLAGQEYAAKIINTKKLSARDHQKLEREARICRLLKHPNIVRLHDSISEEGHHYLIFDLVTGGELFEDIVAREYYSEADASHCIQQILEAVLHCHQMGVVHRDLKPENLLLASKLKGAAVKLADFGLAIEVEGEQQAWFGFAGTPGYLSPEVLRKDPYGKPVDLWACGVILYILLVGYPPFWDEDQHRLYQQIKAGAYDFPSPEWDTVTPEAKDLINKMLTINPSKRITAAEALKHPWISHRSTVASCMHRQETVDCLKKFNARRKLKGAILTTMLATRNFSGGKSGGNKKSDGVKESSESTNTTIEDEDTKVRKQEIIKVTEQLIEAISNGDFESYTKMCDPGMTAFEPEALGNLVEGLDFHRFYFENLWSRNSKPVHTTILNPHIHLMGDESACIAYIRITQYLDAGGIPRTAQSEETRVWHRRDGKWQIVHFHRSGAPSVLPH
Chain of UniProt P31749 (whole entry, looked up): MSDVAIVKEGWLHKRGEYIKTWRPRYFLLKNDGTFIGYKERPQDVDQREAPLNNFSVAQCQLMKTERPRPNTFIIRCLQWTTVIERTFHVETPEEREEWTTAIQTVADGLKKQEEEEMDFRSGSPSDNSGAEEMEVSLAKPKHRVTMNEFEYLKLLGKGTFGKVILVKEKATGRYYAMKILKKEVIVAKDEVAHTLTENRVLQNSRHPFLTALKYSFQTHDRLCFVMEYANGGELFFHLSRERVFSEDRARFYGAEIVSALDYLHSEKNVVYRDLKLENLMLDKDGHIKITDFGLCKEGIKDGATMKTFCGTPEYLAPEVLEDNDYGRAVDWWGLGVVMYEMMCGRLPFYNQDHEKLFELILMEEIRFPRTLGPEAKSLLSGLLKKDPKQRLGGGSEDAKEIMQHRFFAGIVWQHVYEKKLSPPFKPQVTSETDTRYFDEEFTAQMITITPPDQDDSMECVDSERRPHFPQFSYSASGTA

Study 1
SMILES: Cn1cnc(Cn2ccc3ccc(CNCc4[nH]c5ccccc5c4[C@H]4NC(=O)c5ccc(O)cc54)cc32)c1
Target: GTPase KRas (KRAS, Homo sapiens, UniProt P01116, G12C)
Observed: binding
Action: competitor
Technique: NanoBRET
Cells: HEK293
Baseline: vehicle and 20 µM BI compound
It gave 111% and 91.2% and 95.7% and 95.2% for normalized BRET (27.4 nM, 1 h).
It gave 91.6% and 99.3% and 93.6% and 91.9% for normalized BRET (247 nM, 4 h).
For 27.4 nM, 0.5 h: normalized BRET read 102% and 86.3% and 100% and 98.5%.

Study 2
Compound: COc1cc(C(=O)OCCCN2CCCN(CCCOC(=O)c3cc(OC)c(OC)c(OC)c3)CC2)cc(OC)c1OC
Route: intrathecal
Dose: 100 nmol
male mouse, formalin pain; 0 to 5 min — licking duration: 119 s and 200 s and 143 s and 219 s.
For female mouse, formalin pain; 5 to 10 min: licking duration read 35.5 s and 47.3 s and 61.1 s and 41.3 s.
The licking duration was 186 s and 213 s and 172 s and 158 s (female mouse, formalin pain; 0 to 5 min).

Study 3
Compound: Cc1ccc(NC(=O)c2ccnc(C(F)(F)F)c2)cc1-c1cc(OCCO)nc(N2CCOCC2)c1
Observed: binding
Concentration: 1 µM
For Phosphatidylinositol 4,5-bisphosphate 3-kinase catalytic subunit alpha isoform (PIK3CA, Homo sapiens, UniProt P42336, I800L): remaining binding read 88%.
It gave 98% for remaining binding (Mitogen-activated protein kinase kinase kinase kinase 5 (MAP4K5, Homo sapiens, UniProt Q9Y4K4); competition with immobilised ligand).
For Activin receptor type-2B (ACVR2B, Homo sapiens, UniProt Q13705); competition with immobilised ligand: remaining binding read 87%.
It gave 90% for remaining binding (Serine/threonine-protein kinase 36 (STK36, Homo sapiens, UniProt Q9NRP7); competition with immobilised ligand).
It gave 78% for remaining binding (Mitogen-activated protein kinase 6 (MAPK6, Homo sapiens, UniProt Q16659)).

Study 4
Host: human
Sample: microsomes or S9
Concentration: 2 µM
Time: 0.5 h
With Cc1nn(C(C)C(=O)N(C)Cc2cnn(C)c2)cc1Br (stereo not shown) the remaining compound was 82.9%.
For COc1cccc(-c2nc3cc(Cl)ccc3c3ccnn23)c1Cl, the remaining compound was 49.9%.
For CCCc1cc(N2CCC3(CCC(=O)N(CCc4c[nH]cn4)C3)CC2)nc(C)n1, the remaining compound was 90.4%.
With CCOc1ccc(-c2c(C)n[nH]c2NC(=O)c2cc(OC)cc(OC)c2)cc1OCC the remaining compound was 50.5%.
The remaining compound of COC(=O)c1cc(OC)c(OC)cc1NC(=O)c1c(Br)cnn1C is reported as 12.3%.
The remaining compound of CCC(C)c1ccc(O)c(NC(=O)c2nccnc2C(=O)O)c1 (stereo not shown) is reported as 96.5%.
Nc1ccc(Sc2nccc(-c3cccs3)n2)cc1 has a remaining compound of over 99%.

Study 5
Cell line: A-375
Concentration: 100 µM
Time: 36 h
The viability of COc1cc(S(=O)(=O)O)ccc1O is reported as 101% and 145%.
For CCCCC(CC)COC(=O)CC(C(=O)OCC(CC)CCCC)S(=O)(=O)O (stereo not shown), the viability was 1.13%.
For O[C@@H](c1cc(C(F)(F)F)nc2c(C(F)(F)F)cccc12)[C@H]1CCCCN1, the viability was -1.04%.
CC(=O)OCC(=O)[C@H]1CC[C@H]2[C@@H]3CCC4=CC(=O)CC[C@]4(C)[C@H]3CC[C@]12C gave a viability of 69.2%.
The viability of C[C@@H](O[C@H]1OCCN(Cc2nc(O)n(P(=O)(O)O)n2)[C@H]1c1ccc(F)cc1)c1cc(C(F)(F)F)cc(C(F)(F)F)c1 is reported as 0.196%.

Study 6
SMILES: Cc1nccc(COC(=O)N2C[C@@H]3[C@@H](CNC(=O)c4ccc5[nH]nnc5c4)[C@@H]3C2)n1
Observed: cell-free assay
Technique: competition with immobilised ligand
Concentration: 1 µM
It gave 81% for remaining binding (Fibroblast growth factor receptor 4 (FGFR4, Homo sapiens, UniProt P22455)).
The remaining binding was 100% (Epidermal growth factor receptor (EGFR, Homo sapiens, UniProt P00533, L861Q)).
It gave 100% for remaining binding (Mitogen-activated protein kinase kinase kinase kinase 5 (MAP4K5, Homo sapiens, UniProt Q9Y4K4)).
The remaining binding was 91% (Ribosomal protein S6 kinase alpha-2, C-terminal kinase domain (RPS6KA2, Homo sapiens, UniProt Q15349)).
It gave 93% for remaining binding (Ephrin type-A receptor 5 (EPHA5, Homo sapiens, UniProt P54756)).
Hepatocyte growth factor receptor (MET, Homo sapiens, UniProt P08581) — remaining binding: 94%.
Serine/threonine-protein kinase TAO1 (TAOK1, Homo sapiens, UniProt Q7L7X3) — remaining binding: 85%.
It gave 100% for remaining binding (Serine/threonine-protein kinase Sgk3 (SGK3, Homo sapiens, UniProt Q96BR1)).
It gave 100% for remaining binding (Activated CDC42 kinase 1 (TNK2, Homo sapiens, UniProt Q07912)).
Dual specificity mitogen-activated protein kinase kinase 7 (MAP2K7, Homo sapiens, UniProt O14733) — remaining binding: 100%.
For Phosphatidylinositol 4,5-bisphosphate 3-kinase catalytic subunit delta isoform (PIK3CD, Homo sapiens, UniProt O00329): remaining binding read 85%.
The remaining binding was 100% (Serine/threonine-protein kinase 38 (STK38, Homo sapiens, UniProt Q15208)).
For Tyrosine-protein kinase ABL1, non-phosphorylated (ABL1, Homo sapiens, UniProt P00519): remaining binding read 91%.
The remaining binding was 87% (Tyrosine-protein kinase Srms (SRMS, Homo sapiens, UniProt Q9H3Y6)).
The remaining binding was 90% (Ribosomal protein S6 kinase alpha-4, C-terminal kinase domain (RPS6KA4, Homo sapiens, UniProt O75676)).
The remaining binding was 59% (Receptor tyrosine-protein kinase erbB-3 (ERBB3, Homo sapiens, UniProt P21860)).
For Receptor-interacting serine/threonine-protein kinase 1 (RIPK1, Homo sapiens, UniProt Q13546): remaining binding read 86%.
The remaining binding was 65% (Calcium/calmodulin-dependent protein kinase type II subunit alpha (CAMK2A, Homo sapiens, UniProt Q9UQM7)).
It gave 100% for remaining binding (Mast/stem cell growth factor receptor Kit (KIT, Homo sapiens, UniProt P10721, D816V)).
The remaining binding was 41% (Serine/threonine-protein kinase NLK (NLK, Homo sapiens, UniProt Q9UBE8)).
It gave 100% for remaining binding (cGMP-dependent protein kinase 1 (PRKG1, Homo sapiens, UniProt Q13976)).
The remaining binding was 100% (Tyrosine-protein kinase Yes (YES1, Homo sapiens, UniProt P07947)).
It gave 100% for remaining binding (Epithelial discoidin domain-containing receptor 1 (DDR1, Homo sapiens, UniProt Q08345)).
Serine/threonine-protein kinase PLK2 (PLK2, Homo sapiens, UniProt Q9NYY3) — remaining binding: 82%.
It gave 100% for remaining binding (RAC-alpha serine/threonine-protein kinase (AKT1, Homo sapiens, UniProt P31749)).

Study 7
Organism: Sarcocystis neurona
Observed: parasite growth
Concentration: 10 µM
Notes: secondary screen
COc1cc(CNC(=O)CCCC/C=C\C(C)C)ccc1O has an inhibition of -65.1%.
With Clc1ccc(COC(Cn2ccnc2)c2ccc(Cl)cc2Cl)c(Cl)c1 (stereo not shown) the inhibition was 55%.
The inhibition of O=C1[C@H](CC[C@H](O)c2ccc(F)cc2)[C@@H](c2ccc(O)cc2)N1c1ccc(F)cc1 is reported as 12.2%.
For CCOC(=O)C1=C(C)NC(C)=C(C(=O)OC)C1c1cccc([N+](=O)[O-])c1 (stereo not shown), the inhibition was -36.6%.
CSc1nc2cc(Cl)c(Oc3cccc(Cl)c3Cl)cc2[nH]1 has an inhibition of -9.2%.
With Cc1[nH]c(=O)c(C#N)cc1-c1ccncc1 the inhibition was -36.6%.
CC(C)(C)NCC(O)c1cc(O)cc(O)c1 (stereo not shown) has an inhibition of -42%.

For quick reference, copied from above (study 6):
The remaining binding was 41% (Serine/threonine-protein kinase NLK (NLK, Homo sapiens, UniProt Q9UBE8)).
It gave 100% for remaining binding (cGMP-dependent protein kinase 1 (PRKG1, Homo sapiens, UniProt Q13976)).
The remaining binding was 100% (Tyrosine-protein kinase Yes (YES1, Homo sapiens, UniProt P07947)).
It gave 100% for remaining binding (Epithelial discoidin domain-containing receptor 1 (DDR1, Homo sapiens, UniProt Q08345)).
